Measured values collected from several papers.
Values joined by “and” are separate records of one study, mostly repeats; a detail may differ.
lasR: Transcriptional activator protein LasR (lasR, Pseudomonas aeruginosa, UniProt P25084)

| Structure (SMILES) | target | assay | test system | setting | inhibition |
| --- | --- | --- | --- | --- | --- |
| CC(=O)NC[C@@H]1[C@@H](O)C[C@H]2[C@H](O)C[C@@H](CO)N12 | β-N-acetylglucosaminidase | enzyme activity, inhibitor, colorimetric | Canavalia ensiformis | 17.1 nM, with: p-nitrophenyl GlcNAc substrate | 63.6% and 63.9% |
| CN[C@@H]1[C@H](O)[C@H](NC)[C@H]2O[C@]3(O)[C@H](O[C@@H]2[C@H]1O)O[C@H](C)C[C@H]3NC(=O)Cc1ccc(Cl)cn1 | Adra1a (Rattus norvegicus, UniProt P43140) | ligand displacement, radioligand |  | 10 µM | 2% |
| Cc1ccc2c(n1)c(-c1cccc(S(C)(=O)=O)c1)c(C)n2C/C(F)=C/CN | ADRA2A (Homo sapiens, UniProt P08913) | off-target safety screen |  | 10 µM | 65% |
| CN(/N=C/c1ccccc1C(=O)O)c1nc(-c2ccccc2Cl)cs1 | EPHA4 (Homo sapiens, UniProt P54764) | enzyme activity, inhibitor |  | 1 µM | -22.1% |
| CCOC(=O)[C@](CC)(CCCSCCOCCOCCNC(=O)c1ccc(-c2c3ccc(=N)c(S(=O)(=O)O)c-3oc3c(S(=O)(=O)O)c(N)ccc23)c(C(=O)O)c1)NC(=O)c1ccc(C2CC2)c(Cc2ccc(F)cc2)n1 | PDE3B (Homo sapiens, UniProt Q13370) | enzyme activity, inhibitor |  | 10 µM | 15% |
| CS(C)(=O)=Nc1ccc(-c2ccc(-c3nc4cc(O[C@@H]5CO[C@H]6[C@@H]5OC[C@H]6O)[nH]c4cc3F)cc2)cc1 | RPS6KA6 (Homo sapiens, UniProt Q9UK32) | enzyme activity, inhibitor |  | 10 µM | 5% |
| CC(C)[C@H]1NC(=O)C[C@H]2/C=C/CCSSC[C@@H](NC1=O)C(=O)N[C@H](Cc1cccc3ccccc13)C(=O)NCC(=O)O2 | FLT4 (Homo sapiens, UniProt P35916) | enzyme activity, inhibitor |  | 10 µM | -1.7% |
| CCCCCCCCCC(=O)CC(=O)Nc1cccc(OC)c1 | lasR | reporter gene, antagonist | Escherichia coli JLD271 | 10 µM, pSC11 and pJN105L plasmids, with: OdDHL 2 nM | 36% |
| O=C(CN1CN(c2ccccc2)C2(CCN(C(=O)c3cnc4[nH]ncc4c3)CC2)C1=O)NCC(F)(F)F | LATS2 (Homo sapiens, UniProt Q9NRM7) | inhibitor |  | concentration not given | < 50% |
| O=C(CCCOc1ccc(Cl)cc1)N[C@H]1CCOC1=O | lasR | reporter gene, antagonist | Pseudomonas aeruginosa PAO-JP2 | 100 µM, plasI-LVAgfp reporter, with: OdDHL 150 nM | 60% |
| N[C@H](C(=O)N1CCCC1)C1CCN(c2nccc3c(-c4ncc(Cl)cc4Cl)cccc23)CC1 | CSNK1A1 (Homo sapiens, UniProt P48729) | kinase activity, inhibitor |  | 10 µM, with: ATP 1 mM | -0.8% |
| Cc1nc(C)c(F)c(N2CCC(C3NC(=O)C3(C)C)CC2)n1 (centres unmarked) | Uncharacterized hydrolase SAUSA300_2518 (Staphylococcus aureus, UniProt Q2FDS6) | enzyme activity, inhibitor |  | 50 µM | 0.3% |
| COc1ccc(CN(CCC(c2ccccc2)c2ccc(OC(C)C)cc2)C(=O)CCl)cc1OC (centres unmarked) | GSTO1 (Homo sapiens, UniProt P78417) |  |  | 5 µM | 77% |
| CN(C)[C@H]1C[C@@]23CC[C@@]4(O2)C(=CC[C@]2(C)[C@@H](c5ccc6ccncc6c5)CC[C@H]24)C=C3[C@@H](O)[C@@H]1O | CDK11B (Homo sapiens, UniProt P21127) | ATP probe labelling, inhibitor, KiNativ profiling |  | 1 µM | -2.2% |
| C[C@H](NCc1ccc(-c2ccc(C(F)(F)F)cc2)cc1)C(N)=O | CDK19 (Homo sapiens, UniProt Q9BWU1) | cell-free assay, competition with immobilised ligand |  | 1 µM | 2% |
| CCC1CC(c2ccc(C(=O)O)cc2C)=NN1c1ccc(C#N)c(Cl)c1 (centres unmarked) | Histone-lysine N-methyltransferase 2B, complex (KMT2B, Homo sapiens, UniProt Q9UMN6) | enzyme activity |  | 10 µM | 4% |
| O=C(Nc1ccccc1NC(=O)c1cccc(Cl)c1)c1cccc(Cl)c1 | lasR | reporter gene, antagonist | Pseudomonas aeruginosa PAO-JP2 | 100 µM, plasI-LVAgfp reporter, with: OdDHL 150 nM | 79% |
